Experimental data collected from several papers.
Compare with care: the assays were run in different laboratories. Numbers after ± are the reported error. Values after ≈ are worked out from the molar mass of the structure shown.

O=c1c2ccccc2[se]n1CCCCCCn1[se]c2ccccc2c1=O has a solubility of 71 ± 4 µg/mL (≈ 148 µM) (shake-flask, RP-HPLC; 10% SBE-β-cyclodextrin solution; 24 h, 25 °C).
With CN([O-])C(=O)CN1CCN(CC(=O)N(C)[O-])CCN(Cc2ccccn2)CC1.[89Zr+4] the tracer uptake was 1.05 %ID/g (mouse, blood; intravenous, 4 h).
With O=C(O)/C=C\c1cc2ccoc2cc1O[C@@H]1O[C@H](CO)[C@@H](O)[C@H](O)[C@H]1O the accuracy was 107% (post-procedure stability; rat plasma; 200 ng/mL, 3 h, room temperature).
CCCCN1C(=O)c2cccc3c(NCCCCN4CCOCC4)ccc(c23)C1=O gave an absorption maximum of 442 nm (methanol).
CCCC[C@H](OC(C)=O)c1ccccc1C(=O)O gave an AUC(0-t) of 4690 ± 505 ng·h/mL (beagle dogs, both sexes, whole blood; intravenous, 5 mg/kg single dose).
C=CC(=O)Nc1cc(Nc2nccc(-c3cn(C)c4ccccc34)n2)c(OC)cc1N(C)CCNC has a recovery of 52.2% (storage stability; human plasma; 30 d, on ice, MQC level).
CN(C(=O)C(C)(C)c1cc(C(F)(F)F)cc(C(F)(F)F)c1)c1cnc(N2C[C@H]3COC(O)CN3C[C@H]2CO)cc1-c1ccc(F)cc1CO (stereo partly drawn) has an AUC extrapolated of 4.67% (human, plasma; oral, 120 mg, geometric mean).
CC(C)[C@H](NC(=O)[C@H](Cc1c[nH]c2ccccc12)NC(=O)[C@H](CCCNC(=N)N)NC(=O)[C@H](CCCNC(=N)N)NC(=O)[C@@H](NC(=O)[C@@H](NC(=O)[C@H](CCCNC(=N)N)NC(=O)[C@@H](NC(=O)[C@@H](NC(=O)[C@H](CCCNC(=N)N)NC(=O)[C@H](CCCNC(=N)N)NC(=O)[C@@H](NC(=O)[C@H](Cc1c[nH]c2ccccc12)NC(=O)[C@H](CCCNC(=N)N)NC(=O)[C@H](CCCNC(=N)N)NC(=O)[C@@H](NC(=O)[C@H](CCCNC(=N)N)NC(=O)[C@H](CCCNC(=N)N)NC(=O)[C@@H](NC(=O)[C@H](Cc1c[nH]c2ccccc12)NC(=O)[C@H](CCCNC(=N)N)NC(=O)[C@@H](N)CCCNC(=N)N)C(C)C)C(C)C)C(C)C)C(C)C)C(C)C)C(C)C)C(C)C)C(=O)N[C@@H](CCCNC(=N)N)C(=O)N[C@@H](CCCNC(=N)N)C(=O)O gave a urinary creatinine of 7 mg/dL (CD-1 mice; intravenous, 15 mg/kg, 6-24 h).
The intrinsic clearance of [2H]C1([2H])CC[C@@H](C[C@@H](C#N)NC(=O)[C@@H]2[C@@H]3[C@H](CN2C(=O)[C@@H](NC(=O)C(F)F)C(C)(C)C)C3(C)C)C(=O)N1 is reported as 39.5 mL/min/kg (rat hepatocytes; scaled to liver).
CCCCCCCCCCCCCCCCCC(=O)[O][Pt-2]1([OH])([Cl])([NH+]=C(CC)N(C)CCNc2c3ccccc3[nH+]c3ccccc23)[NH2+]CCC[NH2+]1.O=[N+]([O-])[O-].O=[N+]([O-])[O-] has a logD of 1.2 ± 0.06 (shake-flask; 1-octanol/0.9% NaCl; pH 5).
CN(O)C(=O)CCC(=O)NCCCN(CCCCN(CCCNC(=O)CCC(=O)N(C)O)C(=O)CCC(=O)N(C)O)C(=O)CCC(=O)N(C)O.[89Zr] gave a tracer uptake of 0.04 %ID/g (mouse, liver; 24 h).
CCCCN1C(=O)c2cccc3c(NCCCCCCCCN4CCOCC4)ccc(c23)C1=O has an absorption maximum of 428 nm (dioxane).
Nc1ccc(-c2ccc(F)cc2)cc1NC(=O)C1CCOCC1: “absorption rate constant” 6 h⁻¹ (C57BL/6 mouse, male, plasma; intraperitoneal, 10 mg/kg).
CC(C)C[C@H](NC(=O)[C@H](CCCN)NC(=O)CNC(=O)[C@@H](NC(=O)[C@H](C)NC(=O)[C@@H]1CSCSC[C@H](NC(=O)CC[C@H](N)C(=O)O)C(=O)N[C@@H](CC(N)=O)C(=O)N[C@@H]([C@@H](C)O)C(=O)N[C@@H](C)C(=O)N[C@@H]([C@@H](C)O)C(=O)N1)[C@@H](C)O)C(=O)N[C@@H](C)C(=O)N[C@@H](CCC(=O)O)C(=O)N[C@@](C)(Cc1ccccc1)C(=O)N[C@@H](CC(C)C)C(=O)N[C@H](C(=O)N[C@@H](CCCNC(=N)N)C(=O)N[C@@H](CO)C(=O)N[C@@H](CO)C(=O)N[C@@H](CC(N)=O)C(=O)N(C)[C@@H](CC(N)=O)C(=O)N[C@@H](Cc1ccccc1)C(=O)NCC(=O)N1CCC[C@H]1C(=O)N[C@@H](CCCCNC(=O)CC[C@H](NC(=O)CC[C@H](NC(=O)CCCCCCCCCCCCCCCCCCC(=O)O)C(=O)O)C(=O)O)C(=O)N[C@@H](CC(C)C)C(=O)N1CCC[C@H]1C(=O)N1CCC[C@H]1C(=O)N[C@H](C(=O)N[C@@H](CCC(=O)O)C(=O)N[C@H](C(=O)NCC(=O)N[C@@H](CO)C(=O)N[C@@H](CC(N)=O)C(=O)N[C@H](C(=O)N[C@@H](Cc1ccc(O)cc1)C(N)=O)[C@@H](C)O)C(C)C)[C@@H](C)O)C(C)C gave an AUC extrapolated of 4.5% (healthy humans, plasma; subcutaneous, dose not given).
C=C(NC(=O)c1csc(-c2nc3c(cc2O)-c2nc(cs2)C(=O)NC(C(C)O)C(=O)NC(=C(C)OC)c2nc(cs2)C(=O)NC2c4nc(cs4)C(=O)NC(COC(=O)c4c5c6c(cccc6n4O)COC(=O)C(OC4CC(C)(O)C(N(C)C)C(C)O4)C2OC5)c2nc-3cs2)n1)C(N)=O (stereo not drawn) gave an MRT(0-last) of 61.2 min (cynomolgus monkey, male, plasma; intravenous infusion, 1 mg/kg single dose).
With O=C(Nc1cnccc1-c1ccc([18F])nc1)c1ccnc(NC(=O)C2CC2)c1 the SUV was 0.113 (mice, transgenic, GSK-3β, early-stage, lung; intravenous, dose not given, 120 min).
The SUV of Cc1nc(N)nc2c1C(=O)N[C@@H](c1ccc(F)cc1-c1cccc(O[11CH3])n1)C2 is reported as 5.7 ± 0.6 (ex vivo biodistribution; mice, U87 subcutaneous xenograft, spleen; 60 min post-injection, baseline, vehicle pre-treatment).
For Cc1cc(-c2ccc(C(=O)[C@@H]3CCCC[C@H]3C(=O)Nc3cnn4c3C(=O)NCC4)cc2)[nH]n1, “recovery of radioactivity per interval” read 0.06% (human, faeces; oral, 200 mg, 288-312 h, discharged subjects excluded; reference: dose).
CN1CCC[C@]1(C)/C=C/S(=O)(=O)NC(=O)Nc1c2c(cc3c1CCC3O)CCC2 (stereo partly drawn) — result for “AUC(0-tau) accumulation ratio”: 1.9 (human, plasma; oral, 12.5 mg twice daily of parent drug, metabolite of dosed drug; reference: day 14 over day 1).
The SUV of O=C(Nc1cnccc1-c1ccc([18F])cc1)c1ccnc(NC(=O)C2CC2)c1 is reported as 0.22 (mice, transgenic, GSK-3β, early-stage, blood; intravenous, dose not given, 120 min, added: tariquidar 15 mg/kg i.v. pre-dose).
O=C1CCC(N2C(=O)c3ccc(N4CCC(C(=O)N5CCC(CCN6CCC(CNC(=O)c7cccc(-c8noc(C(F)(F)F)n8)c7)(c7nc(-c8ccccc8)cs7)CC6)CC5)CC4)cc3C2=O)C(=O)N1 (stereo not drawn) gave a clearance of 612 ± 79 mL/min/kg (ICR mouse, plasma; oral, 30 mg/kg).
CCCCN1C(=O)c2cccc3c(NCCCCCN4CCOCC4)ccc(c23)C1=O — result for “fluorescence quantum yield”: 0.27 (water; pH 6.0).
For CC(C)(O)c1ncc([S@](N)(=O)=NC(=O)Nc2c3c(cc4c2CCC4)CCC3)s1, “nervous system adverse events” read 17% (healthy human; oral, 3 mg single dose, capsule formulation).
For CCCCCCCCCCCCCCCOC(=O)/C=C/c1cc(O)c(O)c(OC)c1, the hemolysis was 0.4% (red blood cells; concentration not given; reference: Triton X-100).
With Cc1c(Cc2cccc(OC(C)(C)C(=O)O)c2)c2ccc(C(=O)N[C@@H](C)c3cc(C(C)(C)C)ccc3F)cc2n1CC(C)C the half-life was 43 min (metabolic stability; mouse, liver microsomes).
COc1cccc(OC)c1-c1cc(C(=O)NC2(C(=O)O)C3CC4CC(C3)CC2C4)nn1-c1ccc(C(=O)N(C)CCCN(C)C(=O)[C@H](CCCCNC(=O)[C@H](CC(C)C)NC(=O)C2OC2C(=O)O)NC(=O)CN2CCN(CC(=O)[O-])CCN(CC(=O)[O-])CCN(CC(=O)[O-])CC2)cc1C(C)C.[177Lu+3] (mixture of isomers) gave a tumour-to-liver ratio of 3.8 (mouse, HT-29 xenograft; 72 h post injection, biodistribution; reference: tumour over liver uptake).
CN1CCC[C@]1(C)/C=C/S(=O)(=O)NC(=O)Nc1c2c(cc3c1CCC3)CC=C2 gave an AUC(0-tau) of 35800 ng·h/mL (human, plasma; oral, 12.5 mg twice daily of parent drug, day 1, metabolite of dosed drug).
